Measurements of several laboratories.
Every numbered part comes from another study and shows a few of its results, in no order.
Chain of UniProt Q12851 (whole entry, looked up): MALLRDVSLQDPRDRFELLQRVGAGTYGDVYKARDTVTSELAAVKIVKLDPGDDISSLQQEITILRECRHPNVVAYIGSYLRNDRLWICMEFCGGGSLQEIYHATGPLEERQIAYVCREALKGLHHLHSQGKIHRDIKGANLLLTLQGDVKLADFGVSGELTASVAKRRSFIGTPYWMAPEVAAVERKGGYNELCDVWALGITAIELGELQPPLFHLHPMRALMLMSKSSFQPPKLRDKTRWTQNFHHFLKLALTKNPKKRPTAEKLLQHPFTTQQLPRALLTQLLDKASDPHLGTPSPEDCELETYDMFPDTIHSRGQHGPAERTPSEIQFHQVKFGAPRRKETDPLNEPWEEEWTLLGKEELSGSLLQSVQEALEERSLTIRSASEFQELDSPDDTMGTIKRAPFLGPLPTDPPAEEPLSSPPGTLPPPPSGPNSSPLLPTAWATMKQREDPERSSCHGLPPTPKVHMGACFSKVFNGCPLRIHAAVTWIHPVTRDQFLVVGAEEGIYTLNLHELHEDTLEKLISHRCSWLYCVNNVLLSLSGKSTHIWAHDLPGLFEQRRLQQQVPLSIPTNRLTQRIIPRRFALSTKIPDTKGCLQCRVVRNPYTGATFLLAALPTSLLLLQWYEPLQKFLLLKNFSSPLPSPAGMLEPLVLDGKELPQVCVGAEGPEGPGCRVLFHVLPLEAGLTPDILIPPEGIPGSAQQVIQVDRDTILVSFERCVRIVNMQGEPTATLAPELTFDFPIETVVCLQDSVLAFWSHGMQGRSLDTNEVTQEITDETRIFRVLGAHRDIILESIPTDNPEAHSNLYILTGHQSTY
Chain of UniProt O15264 (whole entry, looked up): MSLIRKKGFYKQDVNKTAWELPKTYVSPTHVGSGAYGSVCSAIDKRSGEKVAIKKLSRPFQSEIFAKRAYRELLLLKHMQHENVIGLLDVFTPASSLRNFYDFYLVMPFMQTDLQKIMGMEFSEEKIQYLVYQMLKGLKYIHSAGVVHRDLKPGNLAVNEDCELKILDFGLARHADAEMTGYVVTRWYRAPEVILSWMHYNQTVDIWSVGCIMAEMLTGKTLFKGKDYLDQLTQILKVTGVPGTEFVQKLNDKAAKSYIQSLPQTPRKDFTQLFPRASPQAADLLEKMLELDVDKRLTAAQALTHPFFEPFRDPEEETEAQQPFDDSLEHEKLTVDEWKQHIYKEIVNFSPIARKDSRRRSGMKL
Chain of UniProt P30291 (whole entry, looked up): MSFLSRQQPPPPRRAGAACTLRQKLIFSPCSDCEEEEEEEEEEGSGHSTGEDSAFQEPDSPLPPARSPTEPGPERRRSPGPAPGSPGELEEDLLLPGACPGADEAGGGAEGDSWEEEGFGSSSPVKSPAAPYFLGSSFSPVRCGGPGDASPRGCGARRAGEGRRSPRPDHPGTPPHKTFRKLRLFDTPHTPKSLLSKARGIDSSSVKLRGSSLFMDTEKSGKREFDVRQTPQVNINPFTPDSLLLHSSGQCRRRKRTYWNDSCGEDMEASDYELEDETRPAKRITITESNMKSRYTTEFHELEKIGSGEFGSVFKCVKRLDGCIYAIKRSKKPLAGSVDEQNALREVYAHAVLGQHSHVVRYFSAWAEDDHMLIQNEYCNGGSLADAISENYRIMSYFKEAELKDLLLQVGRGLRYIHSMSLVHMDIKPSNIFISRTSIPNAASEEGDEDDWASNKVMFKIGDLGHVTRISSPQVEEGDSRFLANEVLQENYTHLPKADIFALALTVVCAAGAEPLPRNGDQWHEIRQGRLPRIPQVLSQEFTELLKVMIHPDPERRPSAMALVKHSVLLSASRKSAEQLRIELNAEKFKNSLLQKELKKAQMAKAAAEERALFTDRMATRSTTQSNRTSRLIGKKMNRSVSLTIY
Chain of UniProt Q8N752 (whole entry, looked up): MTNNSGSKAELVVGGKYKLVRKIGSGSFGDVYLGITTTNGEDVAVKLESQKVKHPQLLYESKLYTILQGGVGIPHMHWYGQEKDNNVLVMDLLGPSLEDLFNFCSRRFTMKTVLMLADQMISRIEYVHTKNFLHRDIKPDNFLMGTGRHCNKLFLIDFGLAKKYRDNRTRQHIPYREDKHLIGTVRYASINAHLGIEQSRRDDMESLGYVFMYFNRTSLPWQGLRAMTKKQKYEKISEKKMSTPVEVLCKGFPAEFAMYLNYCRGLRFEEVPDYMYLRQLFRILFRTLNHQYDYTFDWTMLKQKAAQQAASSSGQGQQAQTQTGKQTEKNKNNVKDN
Chain of UniProt O94806 (whole entry, looked up): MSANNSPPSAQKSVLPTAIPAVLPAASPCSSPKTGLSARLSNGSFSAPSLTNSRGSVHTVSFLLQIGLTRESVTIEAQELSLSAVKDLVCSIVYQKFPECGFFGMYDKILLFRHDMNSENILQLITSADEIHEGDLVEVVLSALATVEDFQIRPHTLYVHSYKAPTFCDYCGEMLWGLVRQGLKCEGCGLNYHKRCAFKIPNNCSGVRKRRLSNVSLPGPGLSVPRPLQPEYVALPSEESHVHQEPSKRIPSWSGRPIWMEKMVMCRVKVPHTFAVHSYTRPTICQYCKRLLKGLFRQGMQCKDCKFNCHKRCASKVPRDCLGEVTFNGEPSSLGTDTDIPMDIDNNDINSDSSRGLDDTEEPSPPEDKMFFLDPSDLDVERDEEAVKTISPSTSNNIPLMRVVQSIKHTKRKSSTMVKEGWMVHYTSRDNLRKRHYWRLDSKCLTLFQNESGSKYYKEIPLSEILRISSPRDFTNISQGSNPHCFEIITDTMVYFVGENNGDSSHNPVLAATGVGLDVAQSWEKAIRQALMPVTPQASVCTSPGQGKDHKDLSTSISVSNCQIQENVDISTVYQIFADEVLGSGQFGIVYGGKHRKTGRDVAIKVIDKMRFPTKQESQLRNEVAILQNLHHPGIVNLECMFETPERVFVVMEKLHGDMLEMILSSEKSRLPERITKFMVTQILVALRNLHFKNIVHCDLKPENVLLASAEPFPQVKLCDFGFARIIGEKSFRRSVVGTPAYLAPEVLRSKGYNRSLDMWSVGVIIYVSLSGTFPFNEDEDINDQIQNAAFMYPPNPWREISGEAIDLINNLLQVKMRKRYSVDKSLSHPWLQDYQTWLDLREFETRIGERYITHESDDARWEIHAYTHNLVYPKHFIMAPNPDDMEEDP
Chain of UniProt P68400 (whole entry, looked up): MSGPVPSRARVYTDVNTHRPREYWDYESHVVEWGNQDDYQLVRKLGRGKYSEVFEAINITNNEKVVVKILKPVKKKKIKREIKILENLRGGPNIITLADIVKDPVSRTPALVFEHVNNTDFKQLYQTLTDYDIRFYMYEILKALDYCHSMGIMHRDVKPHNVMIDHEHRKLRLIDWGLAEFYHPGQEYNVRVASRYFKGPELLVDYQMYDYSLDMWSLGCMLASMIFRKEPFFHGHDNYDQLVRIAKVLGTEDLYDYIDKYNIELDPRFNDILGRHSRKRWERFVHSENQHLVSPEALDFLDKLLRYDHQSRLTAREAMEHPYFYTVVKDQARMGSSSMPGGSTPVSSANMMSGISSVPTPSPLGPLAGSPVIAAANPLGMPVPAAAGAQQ
Chain of UniProt O95382 (whole entry, looked up): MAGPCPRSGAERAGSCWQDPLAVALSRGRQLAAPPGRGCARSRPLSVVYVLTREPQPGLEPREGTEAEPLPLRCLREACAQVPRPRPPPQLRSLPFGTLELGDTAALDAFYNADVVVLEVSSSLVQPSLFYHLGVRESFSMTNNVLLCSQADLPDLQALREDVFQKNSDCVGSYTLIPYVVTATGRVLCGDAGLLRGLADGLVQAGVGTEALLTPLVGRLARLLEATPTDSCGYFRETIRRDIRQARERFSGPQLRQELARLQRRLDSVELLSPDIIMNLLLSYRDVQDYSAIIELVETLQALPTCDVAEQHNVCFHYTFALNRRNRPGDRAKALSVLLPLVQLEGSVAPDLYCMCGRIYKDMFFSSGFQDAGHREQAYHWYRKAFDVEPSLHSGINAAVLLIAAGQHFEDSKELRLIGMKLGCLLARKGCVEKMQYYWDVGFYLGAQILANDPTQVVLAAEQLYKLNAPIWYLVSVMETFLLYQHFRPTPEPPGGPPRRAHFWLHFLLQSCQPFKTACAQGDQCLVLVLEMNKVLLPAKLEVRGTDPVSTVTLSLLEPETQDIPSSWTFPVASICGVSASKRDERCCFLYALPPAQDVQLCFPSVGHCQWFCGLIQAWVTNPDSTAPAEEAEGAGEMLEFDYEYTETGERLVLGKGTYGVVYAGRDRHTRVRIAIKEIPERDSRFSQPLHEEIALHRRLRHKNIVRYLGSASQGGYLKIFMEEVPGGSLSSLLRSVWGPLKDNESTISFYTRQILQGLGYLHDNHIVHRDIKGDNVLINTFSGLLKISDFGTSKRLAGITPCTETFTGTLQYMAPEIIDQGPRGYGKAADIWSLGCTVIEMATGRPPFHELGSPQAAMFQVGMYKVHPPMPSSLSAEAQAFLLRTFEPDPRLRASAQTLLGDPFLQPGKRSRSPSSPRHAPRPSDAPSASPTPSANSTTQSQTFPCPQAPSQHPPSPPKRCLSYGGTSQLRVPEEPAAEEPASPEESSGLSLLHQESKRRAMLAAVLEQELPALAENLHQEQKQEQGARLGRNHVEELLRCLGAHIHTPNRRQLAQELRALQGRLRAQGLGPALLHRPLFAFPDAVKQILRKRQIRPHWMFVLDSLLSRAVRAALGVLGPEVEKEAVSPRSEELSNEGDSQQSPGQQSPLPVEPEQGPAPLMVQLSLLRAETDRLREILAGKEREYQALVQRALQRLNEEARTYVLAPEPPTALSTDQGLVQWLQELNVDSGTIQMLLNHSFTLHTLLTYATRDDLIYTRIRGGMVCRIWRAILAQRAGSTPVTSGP
Chain of UniProt Q9UQB9 (whole entry, looked up): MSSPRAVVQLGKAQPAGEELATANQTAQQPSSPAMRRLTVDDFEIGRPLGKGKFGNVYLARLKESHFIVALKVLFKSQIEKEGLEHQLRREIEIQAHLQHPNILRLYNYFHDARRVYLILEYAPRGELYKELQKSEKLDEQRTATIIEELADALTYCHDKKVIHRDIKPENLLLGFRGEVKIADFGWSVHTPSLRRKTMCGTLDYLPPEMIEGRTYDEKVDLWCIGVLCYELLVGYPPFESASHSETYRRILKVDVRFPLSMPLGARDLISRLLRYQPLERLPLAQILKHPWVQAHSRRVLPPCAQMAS

Set 1
SMILES: Cc1nc(C2CCN(C(=O)c3ccc(OC(F)(F)F)cc3N)CC2)c2ncc(N3CCN(C)CC3)cc2n1
Read-out: cell-free assay
Method: competition with immobilised ligand
Concentration: 1 µM
It gave 92% for remaining binding (MAP3K15 (Homo sapiens, UniProt Q6ZN16)).
It gave 93% for remaining binding (BMPR1B (Homo sapiens, UniProt O00238)).
The remaining binding was 100% (Aurora kinase C (AURKC, Homo sapiens, UniProt Q9UQB9)).
The remaining binding was 94% (WEE1 (Homo sapiens, UniProt P30291)).
The remaining binding was 100% (ERN1 (Homo sapiens, UniProt O75460)).
It gave 97% for remaining binding (MET (Homo sapiens, UniProt P08581, M1250T)).
It gave 100% for remaining binding (PRKD3 (Homo sapiens, UniProt O94806)).
For CSNK1A1L (Homo sapiens, UniProt Q8N752): remaining binding read 100%.
It gave 100% for remaining binding (MYLK4 (Homo sapiens, UniProt Q86YV6)).
For EGFR (Homo sapiens, UniProt P00533, del746-750): remaining binding read 100%.
For EGFR (Homo sapiens, UniProt P00533, del747-750/T751S): remaining binding read 91%.
It gave 80% for remaining binding (MAP4K2 (Homo sapiens, UniProt Q12851)).
MKNK2 (Homo sapiens, UniProt Q9HBH9) — remaining binding: 100%.
The remaining binding was 85% (CSNK2A2 (Homo sapiens, UniProt P19784)).
NEK5 (Homo sapiens, UniProt Q6P3R8) — remaining binding: 100%.
MAP3K6 (Homo sapiens, UniProt O95382) — remaining binding: 100%.
For WNK3 (Homo sapiens, UniProt Q9BYP7): remaining binding read 94%.
SBK1 (Homo sapiens, UniProt Q52WX2) — remaining binding: 40%.

Set 2
SMILES: CC(C)n1cnc(-c2ccc(F)cc2)c1-c1ncc(C(=O)Nc2ccc(N3CCN(C)CC3)cc2)[nH]1
Method: phase 2a trial
Host: idiopathic pulmonary fibrosis patients
item: drug eruption; 60 mg once daily, grade 1 — “adverse event incidence”: 0%.
item: hydroxybutyrate dehydrogenase increased; 30 mg once daily, grade 3 — “adverse event incidence”: 0%.
item: ECG ST segment abnormal; 30 mg once daily, grade 5 — “adverse event incidence”: 0%.
It gave 0% for “adverse event incidence” (item: ECG ST segment abnormal; dose not given, grade 4, all arms pooled).
item: carotid intima-media thickening; 60 mg once daily, grade 5 — “adverse event incidence”: 0%.
item: ventricular extrasystoles; 30 mg once daily, grade 1 — “adverse event incidence”: 0%.
The “adverse event incidence” was 0% (item: hydroxybutyrate dehydrogenase increased; dose not given, grade 3, all arms pooled).
For item: hepatic enzyme abnormal; 60 mg once daily, grade 5: “adverse event incidence” read 0%.
item: drug eruption; dose not given, grade 4, all arms pooled — “adverse event incidence”: 0%.
item: QRS axis abnormal; 30 mg once daily, grade 5 — “adverse event incidence”: 0%.
The “adverse event incidence” was 0% (item: ventricular extrasystoles; 60 mg once daily, grade 4).
It gave 0% for “adverse event incidence” (item: general and administration site disorders; 30 mg once daily, grade 5).

Set 3
Cell line: mouse MPNST tumor cells
Method: high-content nuclear imaging
Item: cell number
Concentration: 10 µM
Time: 12 h
Notes: mean of 2 replicates
Baseline: plate mean
Direction: higher = more cells
For `O=S(=O)(NCCCCCCc1ccccc1)c1cccc2c(Cl)cccc12`, the nuclei count was -0.44 z-score.
`O=C(CCCN1CC=C(n2c(=O)[nH]c3ccccc32)CC1)c1ccc(F)cc1` has a nuclei count of 1.75 z-score.
The nuclei count of `CC(=O)NCCNc1cc(Cl)nn2c(-c3cccc(S(=O)(=O)N(C)C)c3)c(C)nc12` is reported as 0.237 z-score.
`O=C(O)CCCCN(CCc1ccccc1OCc1ccc(CCc2ccccc2)cc1)Cc1ccc(C(=O)O)cc1` has a nuclei count of 0.836 z-score.
`COC(=O)[C@H]1[C@H]2C[C@H]3c4[nH]c5ccccc5c4CCN3C[C@H]2CC[C@@H]1O` gave a nuclei count of 0.0559 z-score.
For `Cc1c(OCc2cccc(-c3ccc(C(=O)O)cc3)c2)cc2c(c1C)C(=O)C(C1CCCC1)C2` (stereo not shown), the nuclei count was 2.8 z-score.
`O=C(Nc1ccccc1C(=O)Nc1ccc(CCO)cc1)c1ccc([N+](=O)[O-])cc1` has a nuclei count of 2.62 z-score.
`CC(COc1ccccc1)N(CCCl)Cc1ccccc1` (stereo not shown) has a nuclei count of 1.96 z-score.
The nuclei count of `CCOC(=O)c1csc(Nc2ccc(Cl)cc2)n1` is reported as 1.19 z-score.
The nuclei count of `O=c1c(-c2ccc(O)cc2)coc2cc(O)ccc12` is reported as 1.82 z-score.
For `CCCCCCNC(=O)n1cc(F)c(=O)[nH]c1=O`, the nuclei count was -2.81 z-score.
`Clc1ccc(CO/N=C(\Cn2ccnc2)c2ccc(Cl)cc2Cl)c(Cl)c1` has a nuclei count of 0.624 z-score.

Set 4
SMILES: CS(=O)(=O)CCNCc1ccc(-c2ccc3ncnc(Nc4ccc(OCc5cccc(F)c5)c(Cl)c4)c3c2)o1
Read-out: enzyme activity
Action: inhibitor
Concentration: 0.5 µM
Baseline: control
WNK2 (Homo sapiens, UniProt Q9Y3S1) — remaining activity: 102%.
For PRKCD (Homo sapiens, UniProt Q05655): remaining activity read 103%.
The remaining activity was 76.9% (LRRK2 (Homo sapiens, UniProt Q5S007)).
The remaining activity was 106% (PRKCI (Homo sapiens, UniProt P41743)).
For CSNK2A1 (Homo sapiens, UniProt P68400): remaining activity read 121%.
It gave 91.1% for remaining activity (MAPK13 (Homo sapiens, UniProt O15264)).
It gave 103% for remaining activity (PLK2 (Homo sapiens, UniProt Q9NYY3)).
MAP4K2 (Homo sapiens, UniProt Q12851) — remaining activity: 104%.
The remaining activity was 100% (CHEK1 (Homo sapiens, UniProt O14757)).
It gave 104% for remaining activity (CSNK1A1 (Homo sapiens, UniProt P48729)).

Some of these lines once more (set 3):
The nuclei count of `CC(=O)NCCNc1cc(Cl)nn2c(-c3cccc(S(=O)(=O)N(C)C)c3)c(C)nc12` is reported as 0.237 z-score.
`O=C(O)CCCCN(CCc1ccccc1OCc1ccc(CCc2ccccc2)cc1)Cc1ccc(C(=O)O)cc1` has a nuclei count of 0.836 z-score.
`COC(=O)[C@H]1[C@H]2C[C@H]3c4[nH]c5ccccc5c4CCN3C[C@H]2CC[C@@H]1O` gave a nuclei count of 0.0559 z-score.
For `Cc1c(OCc2cccc(-c3ccc(C(=O)O)cc3)c2)cc2c(c1C)C(=O)C(C1CCCC1)C2` (stereo not shown), the nuclei count was 2.8 z-score.
`O=C(Nc1ccccc1C(=O)Nc1ccc(CCO)cc1)c1ccc([N+](=O)[O-])cc1` has a nuclei count of 2.62 z-score.
`CC(COc1ccccc1)N(CCCl)Cc1ccccc1` (stereo not shown) has a nuclei count of 1.96 z-score.
The nuclei count of `CCOC(=O)c1csc(Nc2ccc(Cl)cc2)n1` is reported as 1.19 z-score.
The nuclei count of `O=c1c(-c2ccc(O)cc2)coc2cc(O)ccc12` is reported as 1.82 z-score.
